# Assay results pooled from the literature.
# Compare with care: the assays were run in different laboratories. Numbers after ± are the reported error.
SMILES,test,test system,setting,scale,measurement,result
C=C(c1ncc(C(=O)O)cn1)c1cc2c(cc1C)C(C)(C)CCC2(C)C,,"Sprague-Dawley rat, male","oral, 100 mg/kg, 1 h, sesame oil vehicle",,blood cholesterol,107 ± 20.1 mg/dL
CC(C)[C@H](NC(=O)[C@@H]1CCCN1C(=O)[C@H](CCCNC(=N)N)NC(=O)[C@H](CS)NC(=O)[C@H](Cc1c[nH]c2ccccc12)NC(=O)[C@H](CCCNC(=N)N)NC(=O)[C@@H](Cc1ccccc1)NC(=O)[C@H](Cc1c[nH]cn1)NC(=O)[C@H](CCC(=O)O)NC(=O)[C@H](CS)NC(=O)[C@H](CS)NC(=O)CNC(=O)[C@@H]1CC(=O)N[C@@H](CCCNC(=N)N)C(=O)NCC(=O)N[C@@H](CC(=O)O)C(=O)N[C@H](Cc2ccc(O)cc2)C(=O)N1)C(N)=O [technetium-99m labelled],,"C57 mouse, female, B16/F1 melanoma","intravenous, 0.037 MBq, 24 h",baseline: tumour over liver,tumour to tissue ratio,7.71
CC[C@H](C)[C@H](NC(=O)[C@H](Cc1ccc(O)cc1)NC(=O)[C@H](CCCNC(=N)N)NC(=O)[C@H](CCCNC(=N)N)NC(=O)[C@H](CC(C)C)NC(=O)[C@H](CC(=O)O)NC(=O)[C@H](C)NC(=O)[C@H](C)NC(=O)[C@H](Cc1ccc(O)cc1)NC(=O)[C@H](CCC(N)=O)NC(=O)[C@H](C)NC(=O)[C@H](CCSC)NC(=O)[C@H](CCC(N)=O)NC(=O)[C@H](CCC(=O)O)NC(=O)[C@@H]1CCCN1C(=O)[C@@H](NC(=O)[C@H](C)NC(=O)[C@H](CC(N)=O)NC(=O)[C@H](CC(=O)O)NC(=O)CNC(=O)[C@@H]1CCCN1C(=O)[C@H](Cc1ccc(O)cc1)NC(=O)[C@@H](NC(=O)[C@@H]1CCCN1C(=O)[C@H](CCC(=O)O)NC(=O)[C@H](CC(C)C)NC(=O)[C@@H]1CCCN1C(=O)[C@H](C)N)C(C)C)[C@@H](C)O)C(=O)N[C@@H](CC(N)=O)C(=O)N[C@@H](CCSC)C(=O)N[C@@H](CC(C)C)C(=O)N[C@H](C(=O)N[C@@H](CCCNC(=N)N)C(=O)N1CCC[C@H]1C(=O)N[C@@H](CCCNC(=N)N)C(=O)N[C@@H](Cc1ccc(O)cc1)C(N)=O)[C@@H](C)O,dynamic light scattering,PBS,"4 µM, pH 7.4, smaller population, no SSM",,hydrodynamic diameter,98.3 ± 17.9 nm
Oc1cccc(-c2cccc(O)n2)n1.[Cl-].[Cl-].[Ru+2].c1cnc2c(c1)ccc1cccnc12.c1cnc2c(c1)ccc1cccnc12,shake flask,octanol/phosphate buffer,pH 7.00,,logD,1.5
CN[C@@H]1[C@H](O)[C@H](NC)[C@H]2O[C@]3(O)[C@H](O[C@@H]2[C@H]1O)O[C@H](C)C[C@@]3(O)CNCc1ccc(OC(F)(F)F)cc1,,rat,"iv, 10 mg/kg",,clearance,0.53 L/h/kg
Clc1ccc2ccc3[n+](c2c1)[Ir-3]12([c]4ccccc4-3)([c]3ccccc3-c3ccc4ccc(Cl)cc4[n+]31)[n+]1ccccc1-c1cccc[n+]12.F[P-](F)(F)(F)(F)F,,"BALB/c mice, 4T1 tumour",2 mg/kg/day,baseline: vehicle,relative organ weight,no effect
COc1cc(NC(C)=O)c2c(c1O)-c1c(OC)c(OC)cc3c1C(C2)N(C)CC3 (stereo not drawn),,"rat, plasma","5 µg/mL, 40 d, -20 °C, long-term storage",,remaining compound,92 ± 10.4%
CC[C@H](C)[C@H](NC(=O)[C@H](CC(C)C)NC(=O)[C@H](Cc1c[nH]c2ccccc12)NC(=O)[C@H](C)NC(=O)[C@@H](NC(=O)[C@H](Cc1ccccc1)NC(=O)[C@H](CC(=O)O)NC(=O)[C@H](CCCNC(=N)N)NC(=O)[C@H](C)NC(=O)[C@H](C)NC(=O)[C@H](CC(C)C)NC(=O)[C@H](C)NC(=O)[C@H](CC(=O)O)NC(=O)[C@H](CC(C)C)NC(=O)[C@@H](NC(=O)[C@@H](NC(=O)[C@H](C)NC(=O)[C@H](CC(C)C)NC(=O)[C@H](CCC(=O)O)NC(=O)[C@H](CO)NC(=O)[C@H](CO)NC(=O)[C@H](Cc1ccccc1)NC(=O)[C@@H](NC(=O)CNC(=O)[C@H](CCC(=O)O)NC(=O)CNC(=O)[C@@H](N)Cc1c[nH]cn1)[C@@H](C)O)[C@@H](C)O)[C@@H](C)CC)[C@@H](C)CC)C(=O)N[C@@H](C)C(=O)N[C@H](C(=O)N[C@@H](CCCCN)C(=O)N[C@H](C(=O)N[C@H](C(=O)N[C@@H](CC(=O)O)C(=O)N[C@@H](CCCCN)C(=O)O)[C@@H](C)O)[C@@H](C)CC)[C@@H](C)O,,"healthy human subjects, plasma","subcutaneous, 5 mg once weekly, day 36 after 6 doses, steady state, mean",,terminal half-life,231 h
CCCC1OC2CC3C4CCC5=CC(=O)C=CC5(C)C4C(O)CC3(C)C2(C(=O)COC(=O)CN(C)C)O1 (stereo not drawn),,rat lung homogenate,"200 µg/mL, 37 °C",,time to complete hydrolysis,≤ 6 h
N=C(N)NCCC[C@@H]1NC(=O)[C@H](Cc2c[nH]c3ccccc23)NC(=O)[C@@H](CC2CCCCC2)NC(=O)[C@@H]2CCCN2C(=O)[C@@H](NC(=O)CCc2ccccc2)CCCNC1=O,,"C57BL/6J mice, brain","oral, 1 mg/kg, two-compartment model",,distribution rate constant k12,< 0.001 h⁻¹
CCCCOc1nc(N)c2[nH]c(=O)n(CCCN(CCCN3CCOCC3)Cc3cccc(CC(=O)OC)c3)c2n1,,"rat, Brown Norway","intratracheal, 0.3 mg/kg, 0.1167 h",,dose remaining in lung,< 10%
Cc1[nH]c(/C=C2\C(=O)Nc3ccc(F)cc32)c(C)c1NC(=O)CCN1CCN(C)CC1,,dog plasma,"80 ng/mL nominal, three freeze-thaw cycles at -20 °C",,accuracy deviation,-5.62%
Cc1ccc(OCC(=O)N(Cc2cccs2)c2ccn[nH]2)cc1,,human liver microsomes,"10 µM, 60 min, added: NADPH",,remaining compound,~3.15%
CC1(C)CCC(CN2CCN(c3ccc(C(=O)NS(=O)(=O)c4ccc(NCC5COCCO5)c([N+](=O)[O-])c4)c(N4CCCOc5nc6[nH]ccc6cc54)c3)CC2)=C(c2ccc(Cl)cc2)C1 (stereo not drawn),,"Beagle dogs, both sexes","oral, 14 days once daily",,platelet-toxic dose,> 30 mg/kg
NC12CNCCNCC(NCc3ccc(CNC(=O)CCCC(=O)NCc4ccc(-c5nncnn5)cc4)cc3)(CNCCNC1)CNCCNC2.[64Cu+2],OLINDA dosimetry,stomach wall,"pretargeting, 48 h interval",,absorbed dose,0.0385 rad/mCi
CC[C@H](C)[C@H](NC(=O)[C@H](N)Cc1ccc(O)cc1)C(=O)N[C@H]1CSSC[C@@H](C(=O)N(C)[C@H](C(N)=O)[C@@H](C)CC)NC(=O)[C@H](CCCNC(=N)N)NC(=O)[C@H](Cc2c[nH]cn2)NC(=O)[C@H](C)NC(=O)CN(C)C(=O)[C@H](Cc2c[nH]c3ccccc23)NC(=O)[C@H](CC(=O)O)NC(=O)[C@H](CCC(N)=O)NC(=O)[C@H](Cc2cn(C)c3ccccc23)NC(=O)[C@H](C(C)C)NC1=O,UPLC-ESI-MS,cynomolgus monkey plasma,"0.18 µg/mL, 24 h, 25 °C, bench-top after SPE",,recovery,98.9 ± 1.3%
Cc1ccc(/N=N/c2c(O)ccc3ccccc23)c(C)c1,,rat whole blood,"5.0 µg/L, 30 days, -20 °C, long-term storage",,measured concentration,4.99 µg/L
CC(C)C[C@@H](NC(=O)[C@H](NC(=O)[C@H]1CCCN1)[C@H](C)O)C(=O)N[C@H](Cc1c[nH]cn1)C(=O)N[C@@H](C(=O)N[C@H](Cc1c[nH]cn1)C(=O)N[C@H](CC(N)=O)C(=O)N[C@H](CCCNC(=N)N)C(=O)N[C@H](CCCNC(=N)N)C(=O)N[C@H](CCCNC(=N)N)C(=O)N[C@H](CCCNC(=N)N)C(=O)N[C@H](CCCNC(=N)N)C(N)=O)[C@H](C)O,,"beagle dog, plasma","intravenous, 3 mg/kg, single dose",,half-life,2.96 days
NCCCC(=O)OCC(=O)c1ccc(O)c(F)c1F.O=C(O)C(F)(F)F,photolysis at 300 nm,ammonium acetate buffered acetonitrile-water,"pH 5.0, 0.01 mol/L buffer",,quantum yield of rearranged acid,0.15
Cn1c(=O)oc2ccc(-c3ccc(CC(C#N)NC(=O)C4CNCCCO4)c(F)c3)cc21 (stereo not drawn),,human,"oral, 10 mg once daily, treatment-related AE, multiple ascending dose",,ALT increased incidence,11.1%
CC(=O)[CH](C(C)=O)[Pt-2]1([S+](C)C)[O]C(C)=CC(C)=[O+]1 (stereo not drawn),"atomic absorption spectroscopy, item: Pt","rat, feces",72 h,baseline: dose,fecal excretion,9%
CCOc1c(C(C)(C)O)sc2cnc(Nc3ccc(N4CCC(N5CC6(COC6)C5)CC4)cc3OC)nc12,,"New Zealand rabbit, male, isolated Purkinje fibres","30 µM, 45 min, pacing 3 Hz",,APD50 change,-12 ± 5%
CC(C)CCCC(C)CCCC(C)CCO[C@@H]1O[C@H](CO)[C@@H](O[C@H]2O[C@H](CO)[C@@H](O)[C@H](O)[C@H]2O)[C@H](O)[C@H]1O (stereo partly drawn),dynamic surface tension,,0.0072 mmol/L,,induction time,120 s
CCCC[C@H](NC(=O)CNC(=O)CNC(=O)CN1CCN(CC(=O)O)CCN(CC(=O)O)CCN(CC(=O)O)CC1)C(=O)N[C@H]1CC(=O)NCCCC[C@@H](C(N)=O)NC(=O)[C@H](Cc2c[nH]c3ccccc23)NC(=O)[C@H](CCCNC(=N)N)NC(=O)[C@@H](Cc2ccccc2)NC(=O)[C@H](Cc2c[nH]cn2)NC1=O [copper-64 labelled],,"female C57 mouse, B16/F1 melanoma","intravenous, 0.037 MBq, 4 h",baseline: tumour over liver,uptake ratio,0.55
O=C(NCCCN(CCCCN(CCCNC(=O)c1cccc(=O)n1[O-])C(=O)c1cccc(=O)n1[O-])C(=O)c1cccc(=O)n1[O-])c1cccc(=O)n1[O-].[89Zr+4],radio-TLC,PBS,"7 d, pH 7.4, 37 °C, added: Ni^2+ 10-fold excess",,intact complex,97.4 ± 0.1%
NCCCC(=O)OCC(=O)c1cc(F)c(O)cc1F.O=C(O)C(F)(F)F,"photolysis, item: GABA appearance",unbuffered water,,,quantum yield,0.21
CC[C@H](C)[C@@H]1NC(=O)[C@H](Cc2ccc(O)cc2)NC(=O)[C@@H](N)CSSC[C@@H](C(=O)N2CCC[C@H]2C(=O)N[C@@H](CC(C)C)C(=O)NCC(=O)O)NC(=O)[C@H](CC(N)=O)NC(=O)[C@H](CCC(N)=O)NC1=O,capillary electrophoresis,50 mM phosphate buffer,"pH 2.0, 70 °C, 0.1 mg/mL oxytocin",,time to peak degradant,72 h
CCN1/C(=C/C=C2\CCCC(/C=C/C3=[N+](CC)c4ccccc4C3(C)C)=C2NCCCCCCCCN2CCC(Nc3nc4ccccc4n3Cc3ccc(F)cc3)CC2)C(C)(C)c2ccccc21,dynamic light scattering,saline,10 µM,,particle diameter,367 nm
COc1ccc2cc(-c3ccc(-c4ccc(C)cn4)nc3)oc2c1,TCSPC,acetonitrile,zinc-free ligand,,fluorescence lifetime,1.84 ns
CC(C)C[C@H](NC(=O)[C@@H](N)Cc1c[nH]cn1)C(=O)N1CCC[C@H]1C(=O)N[C@@H](CO)C(=O)N[C@@H](Cc1ccc(O)cc1)C(=O)N[C@@H](CO)C(=O)N1CCC[C@H]1C(=O)N[C@@H](CO)C(=O)N1CCC[C@H]1C(=O)N[C@@H](CCC(N)=O)C(=O)O,LC-MS/MS,human plasma,37 °C,,time to reach limit of detection,8 h
[11CH3]c1ccc2nc(C3CCC3)n(-c3ccc4[nH]ncc4c3)c2n1,extrapolated from mouse biodistribution,"standard human, total body",,,absorbed dose,3.2 µSv/MBq
NC[C@@H](C(=O)Nc1ccc(-c2cn[nH]c2)cc1)c1ccccc1,OECD 405 eye irritation,"New Zealand White rabbit, eye","topical, 0.1%, 73 h (day 4), scale 0 to 3",direction not given,conjunctival redness score,1
CC(C)c1cnc(-c2cc(Cl)ccc2F)cc1Nc1ccncc1C(=O)NC(CO)CO,item: anaemia,human patients,"oral, dose not given, grade 1",,patients with related SAE,0%

# For quick reference, copied from above:
SMILES,test,test system,setting,scale,measurement,result
CCN1/C(=C/C=C2\CCCC(/C=C/C3=[N+](CC)c4ccccc4C3(C)C)=C2NCCCCCCCCN2CCC(Nc3nc4ccccc4n3Cc3ccc(F)cc3)CC2)C(C)(C)c2ccccc21,dynamic light scattering,saline,10 µM,,particle diameter,367 nm
Cc1[nH]c(/C=C2\C(=O)Nc3ccc(F)cc32)c(C)c1NC(=O)CCN1CCN(C)CC1,,dog plasma,"80 ng/mL nominal, three freeze-thaw cycles at -20 °C",,accuracy deviation,-5.62%
CCOc1c(C(C)(C)O)sc2cnc(Nc3ccc(N4CCC(N5CC6(COC6)C5)CC4)cc3OC)nc12,,"New Zealand rabbit, male, isolated Purkinje fibres","30 µM, 45 min, pacing 3 Hz",,APD50 change,-12 ± 5%
Cc1ccc(/N=N/c2c(O)ccc3ccccc23)c(C)c1,,rat whole blood,"5.0 µg/L, 30 days, -20 °C, long-term storage",,measured concentration,4.99 µg/L
C=C(c1ncc(C(=O)O)cn1)c1cc2c(cc1C)C(C)(C)CCC2(C)C,,"Sprague-Dawley rat, male","oral, 100 mg/kg, 1 h, sesame oil vehicle",,blood cholesterol,107 ± 20.1 mg/dL
